Values quoted from earlier work as cited in several papers.
Protocols differ between the studies behind these lines. “And” joins repeats or separate records; there may be more than shown. ± gives the spread as reported.
Chain of UniProt P35372 (whole entry, looked up): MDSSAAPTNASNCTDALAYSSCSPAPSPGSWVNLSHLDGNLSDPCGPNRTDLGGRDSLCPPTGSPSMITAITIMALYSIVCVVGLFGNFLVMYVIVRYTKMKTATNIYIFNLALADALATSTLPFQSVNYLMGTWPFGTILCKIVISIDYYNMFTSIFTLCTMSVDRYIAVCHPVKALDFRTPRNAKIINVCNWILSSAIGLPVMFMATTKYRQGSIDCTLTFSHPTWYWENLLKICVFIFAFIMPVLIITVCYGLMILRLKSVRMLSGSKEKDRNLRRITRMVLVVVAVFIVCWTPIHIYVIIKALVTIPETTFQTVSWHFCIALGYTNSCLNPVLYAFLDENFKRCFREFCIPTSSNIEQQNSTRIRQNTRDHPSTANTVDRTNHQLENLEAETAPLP

COc1ccc(Nc2nc(Nc3ccc(OCC[18F])cc3)ncc2Br)cc1
tumour to tissue ratio (S180 tumour-bearing mice; intravenous, 15 min; reference: tumour over blood): 0.78

CCCCCC(=O)N[C@@H](Cc1ccc(N)cc1)C(=O)N[C@@H](CCCC)C(=O)N[C@@H](Cc1ccccc1)C(=O)[C@@]1(C)CO1
CC50 (HepG2 cells; cell viability): 3.41 ± 2.31 µM

Cc1nc(-c2ccncc2)sc1C(=O)NC(C(=O)Nc1cccc(C(N)=O)c1)c1ccc(OCc2ccccc2)cc1 (centres unmarked)
CC50 (HeLa; cytotoxicity): > 50 µM

CCOC(=O)C(c1cc(Cl)c2cccnc2c1O)N1CCOCC1 (centres unmarked)
IC50 (COLO 320 ABCB1-resistant colon; cytotoxicity): 1.56 µM and 1.79 µM and 1.81 µM

O=C(C=C(O)C(F)(F)C(F)(F)F)c1cccc(O)c1
Ki (Plasmodium falciparum formate-nitrite transporter; binding, FCCS; isolated protein): 0.026 ± 0.003 µM

NCCN1CCN(CC(=O)O)Cc2cccc(n2)CN(CC(=O)O)CC1
log KH1 (protonation constant; 0.15 M NaCl): 11.3

CCOC(=O)C(c1cc(Cl)c2cccnc2c1O)c1c[nH]c2ncccc12 (centres unmarked)
IC50 (COLO 205; cell viability): 8.11 µM

CCn1c(C)c(CC(=O)N[C@@H](Cc2ccccc2)C(=O)N(C)c2ccc(F)cc2)c2ccccc21
CC50 (TZM-GFP): 19 ± 2.5 µM

Nc1ccc(C(=O)C=C(O)C(F)(F)C(F)(F)F)cn1
Ki (Plasmodium falciparum formate-nitrite transporter; binding, FCCS; isolated protein): 0.031 ± 0.006 µM

CCOC(=O)C(c1cc(Cl)c2cccnc2c1O)c1c[nH]c2ccccc12 (centres unmarked)
IC50 (COLO 320 ABCB1-resistant colon; cytotoxicity): 4.83 µM and 4.96 µM and 4.64 µM

CC1CCN(C(=O)c2cccc(NC(=O)Nc3ccc(Cl)cc3)c2)CC1
viability (HepG2; 100 µM): 84.2 ± 15.3%

Cc1nc(-c2ccc(F)cc2)sc1C(=O)N[C@H](C(=O)Nc1cccc(C(N)=O)c1)c1ccc(OCc2ccccc2)cc1
CC50 (HeLa; cytotoxicity): > 100 µM

CCCCCC(=O)N[C@@H](Cc1ccccc1)C(=O)N[C@@H](CCCC)C(=O)N[C@@H](Cc1ccccc1)C(=O)[C@@]1(C)CO1
CC50 (HepG2 cells; cell viability): 0.031 ± 0.014 µM

COC1=CC(c2ccc[nH]2)=NC1=CNC(C)(C)C.Cl
IC50 (HepG2; cytotoxicity): 5.4 µg/mL

CC1(N(CC(=O)O)CC(=O)O)CN(CC(=O)O)CCN(CC(=O)O)C1
protonation constant (log) (pH-potentiometry, measured: logK4H; 0.1 M KCl; 25 °C): 2.24

CCCCCC(=O)N[C@@H](Cc1ccc(N)cc1)C(=O)N[C@@H](CCCC)C(=O)N[C@@H](CC(C)C)C(=O)[C@@]1(C)CO1
CC50 (HepG2 cells; cell viability): 0.006 ± 0.005 µM

CCn1c(C)c(CC(=O)N[C@@H](Cc2ccccc2)C(=O)N(C)c2cccc(Cl)c2)c2ccccc21
CC50 (TZM-GFP): 16 ± 6 µM

Cc1ccc2c(c1)nc(CCN1C(=O)c3cccc4cccc(c34)C1=O)n2-c1ccncc1
AUC(0-t) (Sprague-Dawley rat; intravenous, 2.5 mg/kg): 1100 ng·h/mL

Oc1c(Cc2c[nH]c3ccccc23)cc(Cl)c2cccnc12
cytotoxicity (MRC-5 normal embryonic fibroblasts; concentration not given): not toxic

CCn1c(C)c(CC(=O)N[C@@H](Cc2ccccc2)C(=O)N(C)c2ccc(Cl)cc2)c2ccccc21
CC50 (TZM-GFP): 27 ± 11 µM

CCOC(=O)C(c1ccc2ccccc2c1O)c1c[nH]c2ccccc12 (centres unmarked)
IC50 (COLO 320 ABCB1-overexpressing; cell viability): 53.6 µM

CC(=O)N1CCN(C(=O)c2ccc(Nc3nccc(-c4ccc(Cl)cc4)n3)cc2)CC1
efflux ratio (Caco-2): 1.5

CN(C)c1ncnc2c1ncn2[C@@H]1O[C@H](CO)[C@@H](NC(=O)[C@@H](N)CSC23CC4CC(CC(C4)C2)C3)[C@H]1O
CC50 (Vero; MTT): 17.6 µM

O=c1ccc(OCCCN2CCCCC2)nn1-c1ccc(Cl)c(Cl)c1
inhibition (OPRM1 (Homo sapiens, UniProt P35372); 1.0 µM): 25.3 ± 2.4%

CCCCCC(=O)N[C@@H](Cc1ccc(NC(=O)OC(C)(C)C)cc1)C(=O)N[C@@H](CCCC)C(=O)N[C@@H](Cc1ccccc1)C(=O)[C@@]1(C)CO1
CC50 (HepG2 cells; cell viability): 0.478 ± 0.126 µM

Cc1ccc(N(C)C(=O)[C@H](Cc2ccccc2)NC(=O)Cc2c[nH]c3ccc(O)cc23)cc1
CC50 (TZM-GFP): > 100 µM

Cc1sc(-c2ccc(C(F)(F)F)cc2)nc1-c1nn[nH]c1C#N
HbA1c at end of treatment (ZDF rat; 2 mg/kg/day, 6 weeks): 9.29 ± 0.13%

O=C(O)CN(CC(=O)O)[C@H]1CCCC[C@@H]1N(CC(=O)O)Cc1ccccn1
log KH2 (protonation constant; 0.15 M NaCl): 6.39

COC1=CC(c2ccc[nH]2)=NC1=CNC12CC3CC(CC(C3)C1)C2
IC50 (HepG2; cytotoxicity): 3.3 µM

CCN(CC)C(=O)CC(NC(=O)CCc1ccccc1)C(=O)NC(Cc1ccc(F)cc1)C(=O)NC(Cc1ccc(F)cc1F)C(=O)C1(C)CO1 (centres unmarked)
CC50 (HepG2): > 20 µM

Cc1[nH]c2ccccc2c1CC(=O)N[C@@H](Cc1ccccc1)C(=O)N(C)c1ccccc1
CC50 (TZM-GFP): 76 ± 9 µM

c1ccc2c(c1)CCNC2c1c[nH]c2cccnc12 (centres unmarked)
IC50 (COLO 320 ABCB1-resistant colon; cytotoxicity): > 100 µM
